Literature values that unrelated publications cite.
Each numbered part shows a few of the values that one paper quotes. “And” joins repeats or separate records; there may be more than shown. Numbers after ± are the reported error. ≈ marks a conversion by molar mass, not a printed value.
UniProt P23458, sequence (whole entry, looked up): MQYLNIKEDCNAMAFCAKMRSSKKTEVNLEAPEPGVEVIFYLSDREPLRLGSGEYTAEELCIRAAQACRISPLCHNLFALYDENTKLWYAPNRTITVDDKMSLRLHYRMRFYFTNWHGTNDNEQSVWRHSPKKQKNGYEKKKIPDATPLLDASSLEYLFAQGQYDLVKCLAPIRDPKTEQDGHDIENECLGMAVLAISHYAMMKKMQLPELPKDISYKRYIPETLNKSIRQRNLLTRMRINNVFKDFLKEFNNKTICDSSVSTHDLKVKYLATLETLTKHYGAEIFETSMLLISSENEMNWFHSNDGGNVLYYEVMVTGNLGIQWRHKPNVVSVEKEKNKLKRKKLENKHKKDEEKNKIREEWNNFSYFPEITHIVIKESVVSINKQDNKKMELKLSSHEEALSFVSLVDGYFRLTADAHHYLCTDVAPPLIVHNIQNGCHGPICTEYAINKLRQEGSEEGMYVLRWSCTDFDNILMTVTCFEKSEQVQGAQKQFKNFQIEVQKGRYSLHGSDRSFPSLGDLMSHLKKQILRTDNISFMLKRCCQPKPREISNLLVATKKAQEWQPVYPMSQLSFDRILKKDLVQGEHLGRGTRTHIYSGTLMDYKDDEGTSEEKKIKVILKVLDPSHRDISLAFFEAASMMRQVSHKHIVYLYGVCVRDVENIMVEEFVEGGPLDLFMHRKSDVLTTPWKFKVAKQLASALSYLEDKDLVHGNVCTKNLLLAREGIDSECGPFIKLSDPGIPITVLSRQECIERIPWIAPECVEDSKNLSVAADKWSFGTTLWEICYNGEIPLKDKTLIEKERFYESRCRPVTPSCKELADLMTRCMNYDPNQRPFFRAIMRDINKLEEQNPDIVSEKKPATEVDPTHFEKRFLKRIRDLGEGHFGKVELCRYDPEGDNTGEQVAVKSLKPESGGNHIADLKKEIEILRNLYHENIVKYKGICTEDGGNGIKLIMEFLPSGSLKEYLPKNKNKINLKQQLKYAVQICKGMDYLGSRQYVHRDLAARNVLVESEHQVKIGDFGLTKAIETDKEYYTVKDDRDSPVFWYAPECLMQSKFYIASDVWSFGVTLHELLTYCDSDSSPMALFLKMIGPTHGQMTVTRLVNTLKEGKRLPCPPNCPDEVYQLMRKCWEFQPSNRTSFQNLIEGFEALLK
UniProt Q9JLB5, sequence (whole entry, looked up): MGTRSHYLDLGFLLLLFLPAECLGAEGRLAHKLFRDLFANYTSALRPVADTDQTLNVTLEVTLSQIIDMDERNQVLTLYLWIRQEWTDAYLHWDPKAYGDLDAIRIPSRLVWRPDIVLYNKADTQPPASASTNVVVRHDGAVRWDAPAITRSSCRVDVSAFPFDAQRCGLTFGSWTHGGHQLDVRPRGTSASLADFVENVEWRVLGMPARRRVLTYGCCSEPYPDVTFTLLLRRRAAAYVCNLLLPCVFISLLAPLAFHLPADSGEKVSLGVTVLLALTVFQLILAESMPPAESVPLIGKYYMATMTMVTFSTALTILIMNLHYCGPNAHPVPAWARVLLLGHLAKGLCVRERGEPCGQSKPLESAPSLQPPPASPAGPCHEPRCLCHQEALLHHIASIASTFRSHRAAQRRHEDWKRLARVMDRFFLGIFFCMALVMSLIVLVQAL
UniProt P43144, sequence (whole entry, looked up): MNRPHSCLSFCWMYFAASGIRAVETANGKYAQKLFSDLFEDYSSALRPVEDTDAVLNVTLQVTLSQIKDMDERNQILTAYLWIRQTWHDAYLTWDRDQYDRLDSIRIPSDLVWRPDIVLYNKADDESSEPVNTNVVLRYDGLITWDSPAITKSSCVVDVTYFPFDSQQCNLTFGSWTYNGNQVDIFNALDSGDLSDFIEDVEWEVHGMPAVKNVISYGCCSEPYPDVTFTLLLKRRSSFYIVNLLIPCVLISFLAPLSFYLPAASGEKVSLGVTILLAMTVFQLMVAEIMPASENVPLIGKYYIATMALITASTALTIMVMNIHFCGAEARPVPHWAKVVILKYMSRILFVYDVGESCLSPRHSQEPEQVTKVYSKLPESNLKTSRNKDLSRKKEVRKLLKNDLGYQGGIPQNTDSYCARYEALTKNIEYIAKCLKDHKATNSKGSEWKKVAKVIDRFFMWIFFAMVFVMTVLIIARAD

Study 1
Target: HLA class I histocompatibility antigen, A alpha chain, allele A*26:03 (Homo sapiens, UniProt P04439)
Read-out: peptide-MHC binding
Form: peptide
Measurement: IC50
LFLSFCSLF: > 20 µM
RHDITGFIL: > 20 µM
REVFDYLLP: > 20 µM
YMGLVKKAK: > 20 µM
TVGYMYIMK: > 20 µM
KELENEYYF: > 20 µM
RENQVAVVR: > 20 µM
KVFFGPIYY: > 20 µM
YERGNIIIF: > 20 µM
WQFAIHYSF: > 20 µM
WMACHSAAF: 0.158 µM
YHRPLTGYM: > 20 µM
LLRRRPYPL: > 20 µM
EKLKSLFNTV: > 20 µM
NQQVTNSKY: > 20 µM
STYQPLPLY: 0.251 µM
SLFTEQAFY: > 20 µM
HVFVCGNNM: 0.076 µM
VTFFCVMTY: > 20 µM
CFMYSDFHF: > 20 µM
ARHGEYAPF: > 20 µM
YKEPNSIIL: > 20 µM
EELKSLYNTV: > 20 µM
ALFDRPAFK: > 20 µM
KGHLPLLDK: > 20 µM

Further values, each from its own experiment
Oprm1: Mu-type opioid receptor (Oprm1, Mus musculus, UniProt P42866)
UniProt P42866, sequence (whole entry, looked up): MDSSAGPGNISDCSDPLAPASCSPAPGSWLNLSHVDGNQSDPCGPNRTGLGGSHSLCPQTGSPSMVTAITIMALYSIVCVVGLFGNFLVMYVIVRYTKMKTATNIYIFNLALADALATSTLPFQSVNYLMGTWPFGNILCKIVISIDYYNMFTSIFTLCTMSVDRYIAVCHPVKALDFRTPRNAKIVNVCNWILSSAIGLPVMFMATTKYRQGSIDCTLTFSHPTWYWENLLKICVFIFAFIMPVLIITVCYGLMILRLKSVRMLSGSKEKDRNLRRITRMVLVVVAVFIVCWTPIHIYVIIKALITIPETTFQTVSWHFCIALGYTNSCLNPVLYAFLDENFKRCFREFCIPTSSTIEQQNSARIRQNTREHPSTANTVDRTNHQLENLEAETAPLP
CN1CCc2[nH]c3ccccc3c2CC1.O=C(O)/C=C/C(=O)O — Hill coefficient (Nicotinic acetylcholine receptor alpha9/alpha10 (Rattus norvegicus, UniProt P43144+Q9JLB5); inhibitor; with: 10 µM acetylcholine): 2.3 ± 0.2
CCN(CC)C(=O)c1ccc(C(=C2CCNCC2)c2cccc(OC)c2)cc1 — logD (pH 7): 1.33
O=C(O)CC(=O)C(=O)O — Kd (citrate synthase H222Q mutant; binding, fluorescence titration; 20 °C): 33 µM
O=c1ccc2ncc(=O)n3c2n1C[C@H]3CN1CCC(NCc2cc3c(cn2)OCCC3)CC1 — MIC90 (Escherichia coli; quinolone-resistant): 4 µg/mL (≈ 8.92 µM)
C=C[C@@H]1C[C@]1(NC(=O)[C@@H]1C[C@@H]2CN1C(=O)[C@H](C(C)(C)C)NC(=O)O[C@@H]1C[C@H]1CCCCCc1nc3ccc(OC)cc3nc1O2)C(=O)NS(=O)(=O)C1CC1 — IC50 (human OATP1B1; pitavastatin uptake, inhibitor; MDCKII-OATP1B1): 0.7 µM
O=C(O)c1c(Cl)c(Cl)c(Cl)c(Cl)c1-c1c2cc(Br)c(=O)c(Br)c-2oc2c(Br)c(O)c(Br)cc12 — IC50 (Escherichia coli MraY; enzyme activity, inhibitor): 32 µM
Oc1cc(Cl)ccc1Oc1ccc(Cl)cc1Cl — fraction unbound (plasma; literature value): 0.01
O=C(NC1CC[C@@]2(O)[C@H]3Cc4ccc(O)c5c4[C@@]2(CCN3CC2CC2)C1O5)c1cccc(I)c1 (some centres unmarked) — EC50 (Oprm1): 0.00049 ± 0.00012 µM
Nc1ncc(-c2nc(N3CCOCC3)nc(N3CCOCC3)n2)c(C(F)F)n1 — remaining binding (Tyrosine-protein kinase JAK1, JH2 pseudokinase domain (JAK1, Homo sapiens, UniProt P23458); KinomeScan competition binding; 10 µM): 0.05%
CCCN1CCC=C(c2cc(-c3ccc(C)cc3)no2)C1 — Ki (sigma-1 receptor; binding, antagonist): 0.0008 µM
CCC[C@@H]1CC(=O)N([C@@H](CC)C(N)=O)C1 — Ki change (SV2B G240C; concentration not given; relative to: wild-type SV2B): no effect
O=C(NC1C=C[C@H]2[C@H]3Cc4ccc(O)c5c4[C@@]2(CCN3CC2CC2)C1O5)c1cccc(I)c1 (some centres unmarked) — EC50 (Oprm1): 0.00021 ± 3e-05 µM
CCN1CCN(C(=O)N[C@@H](C(=O)N[C@@H]2C(=O)N3[C@@H]2SC(C)(C)[C@@H]3C(=O)O)c2ccccc2)C(=O)C1=O — MIC (Escherichia coli; bacterial growth; colistin-resistant): 8 µg/mL (≈ 15.5 µM)
CN1COCN(Cc2cnc(Cl)s2)/C1=N\[N+](=O)[O-] — measured soil concentration (test soil; 0.12 mg/kg nominal, 28 days): 0.08 mg/kg dry soil
CC(C)C[C@H](NC(=O)CNC(=O)c1cc(Cl)ccc1Cl)B(O)O — fraction unbound in plasma (plasma): 0.01
CC[C@H](C)CCCCC(=O)N[C@@H](CCN)C(=O)N[C@H](C(=O)N[C@@H](CCN)C(=O)N[C@H]1CCNC(=O)[C@H]([C@@H](C)O)NC(=O)[C@H](CCN)NC(=O)[C@H](CCN)NC(=O)[C@H](CC(C)C)NC(=O)[C@@H](CC(C)C)NC(=O)[C@H](CCN)NC1=O)[C@@H](C)O — steady-state average concentration threshold (nephrotoxicity risk; patients, plasma): > 2 mg/L
CC(C)(C)c1cc(O)ccc1O — NOAEL (dog): 72 mg/kg/day
O=C(O)C(F)(F)C(F)(F)C(F)(F)C(F)(F)C(F)(F)C(F)(F)C(F)(F)F — fraction unbound (plasma): 0.005 and 0.0048
CP(C)(=O)c1ccc(Nc2nc(C3CCCC3)nc3c2ncn3CCc2cccc(O)c2)cc1 — GI50 (KIT D816V cells): 0.011 µM
N[C@@H](CO)C(=O)O — EC50 (Tar chemoreceptor; binding, low affinity, FRET): ~10 µM
CO/C1=C\C(C)=C\[C@@H](C)[C@@H](O)[C@@H](C)C/C(C)=C/C=C/[C@H](OC)[C@@H]([C@@H](C)[C@@H](O)[C@H](C)[C@@]2(O)C[C@@H](O)[C@H](C)[C@@H](C(C)C)O2)OC1=O — IC50 (ATP6V1A; inhibitor): 0.1 µM
N=c1c2c(-c3ccccc3)c(-c3ccccc3)n(Cc3ccccc3)c2ncn1[C@H]1CC[C@H](O)CC1 — intratumoral concentration (KPC mouse, pancreatic tumour; dose not given): 4 µM
COC(=O)C[C@@H]1N=C(c2ccc(Cl)cc2)c2c(sc(C)c2C)-n2c(C)nnc21 — IC50 (Bromodomain-containing protein 4, BD1 (BRD4, Homo sapiens, UniProt O60885); biochemical; bromodomain 1): 0.03 µM
CNC(C)C1CCC(N)C(OC2C(N)CC(N)C(OC3OCC(C)(O)C(NC)C3O)C2O)O1 (centres unmarked) — MIC (Escherichia coli; bacterial growth; colistin-resistant): 0.5 µg/mL (≈ 1.05 µM)
C[C@]12CC[C@@H]3c4ccc(O)cc4C[C@@H](CCCCCCCCC[S+]([O-])CCCC(F)(F)C(F)(F)F)[C@H]3[C@@H]1CC[C@@H]2O (some centres unmarked) — overall survival (human, ER+ breast cancer; dose not given): 26.4 months
